Assay results gathered from unrelated publications.
Each numbered part is a random draw from the data of one study; scales do not carry over between parts. “And” joins repeats or separate records; there may be more than shown.
Sequence of UniProt Q16566 (whole entry, looked up): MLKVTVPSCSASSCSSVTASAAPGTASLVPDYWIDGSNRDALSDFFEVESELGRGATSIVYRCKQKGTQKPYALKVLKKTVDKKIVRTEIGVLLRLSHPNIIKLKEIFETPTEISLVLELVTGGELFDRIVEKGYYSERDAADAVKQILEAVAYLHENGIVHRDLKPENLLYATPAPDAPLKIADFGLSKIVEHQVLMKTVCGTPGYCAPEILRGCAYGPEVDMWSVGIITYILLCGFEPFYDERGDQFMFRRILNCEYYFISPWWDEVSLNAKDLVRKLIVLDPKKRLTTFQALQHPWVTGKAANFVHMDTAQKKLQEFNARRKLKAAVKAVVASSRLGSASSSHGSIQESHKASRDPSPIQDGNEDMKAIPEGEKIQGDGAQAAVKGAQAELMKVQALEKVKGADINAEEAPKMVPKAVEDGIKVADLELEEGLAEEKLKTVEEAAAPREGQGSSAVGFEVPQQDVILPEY
Sequence of UniProt Q96PY6 (whole entry, looked up): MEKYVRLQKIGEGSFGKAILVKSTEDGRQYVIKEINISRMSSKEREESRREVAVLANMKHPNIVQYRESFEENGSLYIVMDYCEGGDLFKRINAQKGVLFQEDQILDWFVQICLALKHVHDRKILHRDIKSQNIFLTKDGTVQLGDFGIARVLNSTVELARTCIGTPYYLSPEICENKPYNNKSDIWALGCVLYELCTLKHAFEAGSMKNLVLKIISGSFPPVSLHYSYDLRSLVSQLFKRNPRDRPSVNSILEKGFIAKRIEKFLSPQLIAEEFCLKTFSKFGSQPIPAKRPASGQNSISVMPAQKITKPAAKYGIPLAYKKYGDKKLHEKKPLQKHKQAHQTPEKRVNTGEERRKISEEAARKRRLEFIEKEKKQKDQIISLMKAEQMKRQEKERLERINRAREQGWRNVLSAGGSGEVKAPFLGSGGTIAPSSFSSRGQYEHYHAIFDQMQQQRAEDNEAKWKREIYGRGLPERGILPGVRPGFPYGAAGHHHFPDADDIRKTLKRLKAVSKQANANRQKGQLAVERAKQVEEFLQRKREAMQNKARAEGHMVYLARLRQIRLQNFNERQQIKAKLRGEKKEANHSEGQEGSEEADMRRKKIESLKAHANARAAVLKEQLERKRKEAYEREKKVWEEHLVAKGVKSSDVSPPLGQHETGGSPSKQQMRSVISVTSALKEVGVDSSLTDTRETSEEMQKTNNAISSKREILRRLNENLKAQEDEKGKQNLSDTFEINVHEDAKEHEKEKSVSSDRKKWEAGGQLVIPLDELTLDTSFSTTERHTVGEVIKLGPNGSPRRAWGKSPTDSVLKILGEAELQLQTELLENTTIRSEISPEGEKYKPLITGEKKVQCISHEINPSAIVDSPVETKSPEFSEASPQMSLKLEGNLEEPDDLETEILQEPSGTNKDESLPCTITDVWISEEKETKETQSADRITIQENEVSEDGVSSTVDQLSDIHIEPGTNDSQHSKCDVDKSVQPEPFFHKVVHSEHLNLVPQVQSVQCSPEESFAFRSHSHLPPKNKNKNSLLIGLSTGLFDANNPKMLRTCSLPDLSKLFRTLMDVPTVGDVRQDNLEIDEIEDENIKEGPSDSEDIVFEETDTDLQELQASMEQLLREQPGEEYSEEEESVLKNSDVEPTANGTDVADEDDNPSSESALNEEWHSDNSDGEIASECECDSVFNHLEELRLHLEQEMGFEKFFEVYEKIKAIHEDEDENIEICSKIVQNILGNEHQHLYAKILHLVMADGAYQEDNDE
Sequence of UniProt P42685 (whole entry, looked up): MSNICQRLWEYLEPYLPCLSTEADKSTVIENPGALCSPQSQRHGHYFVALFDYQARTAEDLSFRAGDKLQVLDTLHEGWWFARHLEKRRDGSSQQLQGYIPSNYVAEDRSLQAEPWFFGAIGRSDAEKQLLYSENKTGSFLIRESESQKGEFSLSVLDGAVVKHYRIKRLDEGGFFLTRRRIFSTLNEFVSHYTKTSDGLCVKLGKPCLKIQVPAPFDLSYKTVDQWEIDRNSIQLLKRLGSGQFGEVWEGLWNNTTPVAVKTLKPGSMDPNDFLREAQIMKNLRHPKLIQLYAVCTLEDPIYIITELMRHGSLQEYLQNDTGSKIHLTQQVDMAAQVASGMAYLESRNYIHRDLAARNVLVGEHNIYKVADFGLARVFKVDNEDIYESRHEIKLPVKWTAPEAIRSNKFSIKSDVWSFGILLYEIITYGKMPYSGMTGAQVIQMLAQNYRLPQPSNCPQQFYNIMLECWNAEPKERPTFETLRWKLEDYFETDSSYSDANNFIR
Sequence of UniProt Q8N568 (whole entry, looked up): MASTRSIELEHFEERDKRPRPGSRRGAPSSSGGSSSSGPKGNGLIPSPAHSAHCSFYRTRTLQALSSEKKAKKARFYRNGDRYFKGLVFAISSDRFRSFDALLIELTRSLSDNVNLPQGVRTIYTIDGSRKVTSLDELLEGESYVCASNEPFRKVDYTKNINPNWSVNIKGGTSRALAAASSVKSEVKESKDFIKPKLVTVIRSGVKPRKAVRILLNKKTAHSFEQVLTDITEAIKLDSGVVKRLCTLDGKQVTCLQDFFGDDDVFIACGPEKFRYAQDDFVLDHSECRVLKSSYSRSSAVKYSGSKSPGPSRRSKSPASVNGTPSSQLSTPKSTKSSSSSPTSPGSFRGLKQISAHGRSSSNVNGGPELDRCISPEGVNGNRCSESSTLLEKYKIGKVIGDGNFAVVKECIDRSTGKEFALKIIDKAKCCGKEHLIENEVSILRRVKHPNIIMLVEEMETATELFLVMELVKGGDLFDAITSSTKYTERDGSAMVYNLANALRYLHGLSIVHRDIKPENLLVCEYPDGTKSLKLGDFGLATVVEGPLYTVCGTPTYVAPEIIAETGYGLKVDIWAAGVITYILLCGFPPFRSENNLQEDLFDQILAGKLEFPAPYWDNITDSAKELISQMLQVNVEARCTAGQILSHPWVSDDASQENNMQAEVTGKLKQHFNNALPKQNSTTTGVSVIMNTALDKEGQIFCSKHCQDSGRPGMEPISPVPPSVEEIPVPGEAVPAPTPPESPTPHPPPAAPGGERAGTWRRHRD
Sequence of UniProt Q12866 (whole entry, looked up): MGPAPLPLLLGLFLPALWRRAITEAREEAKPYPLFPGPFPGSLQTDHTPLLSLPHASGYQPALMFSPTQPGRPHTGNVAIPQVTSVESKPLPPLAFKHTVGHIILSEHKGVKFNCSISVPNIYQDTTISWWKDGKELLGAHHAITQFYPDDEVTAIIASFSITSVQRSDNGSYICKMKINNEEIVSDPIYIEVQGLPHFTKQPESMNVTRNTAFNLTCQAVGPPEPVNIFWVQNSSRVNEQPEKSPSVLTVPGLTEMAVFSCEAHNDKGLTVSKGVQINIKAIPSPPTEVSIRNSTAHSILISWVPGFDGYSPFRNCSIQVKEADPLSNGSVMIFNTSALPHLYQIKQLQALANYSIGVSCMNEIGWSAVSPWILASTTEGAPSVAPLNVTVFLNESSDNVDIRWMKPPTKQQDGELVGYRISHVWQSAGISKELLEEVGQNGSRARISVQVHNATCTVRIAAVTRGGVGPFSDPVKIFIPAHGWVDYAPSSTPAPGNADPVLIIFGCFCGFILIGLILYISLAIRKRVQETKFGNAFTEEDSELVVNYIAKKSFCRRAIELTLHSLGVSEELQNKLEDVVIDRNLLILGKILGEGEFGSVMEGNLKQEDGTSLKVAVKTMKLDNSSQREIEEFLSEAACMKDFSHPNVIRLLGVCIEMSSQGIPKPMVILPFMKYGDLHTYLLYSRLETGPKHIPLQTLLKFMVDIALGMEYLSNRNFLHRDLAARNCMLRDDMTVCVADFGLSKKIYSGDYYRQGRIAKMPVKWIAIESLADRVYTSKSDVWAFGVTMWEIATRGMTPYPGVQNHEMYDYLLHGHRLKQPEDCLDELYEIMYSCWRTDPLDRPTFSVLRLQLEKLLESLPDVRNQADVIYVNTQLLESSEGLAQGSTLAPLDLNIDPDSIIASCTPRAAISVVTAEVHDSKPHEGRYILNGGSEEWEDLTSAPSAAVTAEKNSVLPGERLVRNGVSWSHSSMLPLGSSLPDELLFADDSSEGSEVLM
Sequence of UniProt P29320 (whole entry, looked up): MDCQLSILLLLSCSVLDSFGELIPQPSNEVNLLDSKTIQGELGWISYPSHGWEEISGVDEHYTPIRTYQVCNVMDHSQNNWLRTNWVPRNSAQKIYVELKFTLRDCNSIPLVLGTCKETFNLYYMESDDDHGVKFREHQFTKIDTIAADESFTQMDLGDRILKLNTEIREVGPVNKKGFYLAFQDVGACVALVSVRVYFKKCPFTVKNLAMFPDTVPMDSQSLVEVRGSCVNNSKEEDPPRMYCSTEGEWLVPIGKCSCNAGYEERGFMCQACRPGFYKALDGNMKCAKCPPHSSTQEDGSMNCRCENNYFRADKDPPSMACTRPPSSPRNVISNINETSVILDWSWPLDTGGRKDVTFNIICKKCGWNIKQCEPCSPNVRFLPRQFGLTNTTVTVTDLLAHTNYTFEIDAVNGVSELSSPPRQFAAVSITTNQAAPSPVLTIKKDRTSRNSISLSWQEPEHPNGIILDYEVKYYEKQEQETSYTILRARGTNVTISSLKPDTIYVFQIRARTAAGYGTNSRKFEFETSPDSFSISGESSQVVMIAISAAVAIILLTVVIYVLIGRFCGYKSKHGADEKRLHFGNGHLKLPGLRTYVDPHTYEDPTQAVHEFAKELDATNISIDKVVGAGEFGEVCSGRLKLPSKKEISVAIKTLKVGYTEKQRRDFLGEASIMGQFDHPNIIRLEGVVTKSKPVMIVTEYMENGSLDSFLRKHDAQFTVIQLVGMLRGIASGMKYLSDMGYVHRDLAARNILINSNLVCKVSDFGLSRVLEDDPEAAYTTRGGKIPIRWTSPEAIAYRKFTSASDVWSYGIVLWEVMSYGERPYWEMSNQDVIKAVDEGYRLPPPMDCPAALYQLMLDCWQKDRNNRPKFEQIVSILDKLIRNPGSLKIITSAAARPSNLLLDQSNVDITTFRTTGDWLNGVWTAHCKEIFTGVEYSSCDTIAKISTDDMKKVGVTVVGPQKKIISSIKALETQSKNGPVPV

Set 1
Compound: Ic1cccc(CSc2nnc(-c3ccncc3)o2)c1
Observed: enzyme activity
Action: inhibitor
Tested at: 0.5 µM
Relative to: control
target	remaining activity
NEK6 (Homo sapiens, UniProt Q9HC98)	95.4%
GSK3B (Homo sapiens, UniProt P49841)	59.8%
TEK (Homo sapiens, UniProt Q02763)	92.6%
MERTK (Homo sapiens, UniProt Q12866)	96.4%
FGFR1 (Homo sapiens, UniProt P11362)	92.4%
MAP2K2 (Homo sapiens, UniProt P36507)	102%
CSNK1G2 (Homo sapiens, UniProt P78368)	99.2%
MAPK3 (Homo sapiens, UniProt P27361)	95.8%
LCK (Homo sapiens, UniProt P06239)	98.5%
MST1R (Homo sapiens, UniProt Q04912)	104%
TBK1 (Homo sapiens, UniProt Q9UHD2)	103%
FRK (Homo sapiens, UniProt P42685)	85.5%
FGFR3 (Homo sapiens, UniProt P22607)	106%
ABL2 (Homo sapiens, UniProt P42684)	110%
EPHA3 (Homo sapiens, UniProt P29320)	111%
TAOK2 (Homo sapiens, UniProt Q9UL54)	105%
NEK1 (Homo sapiens, UniProt Q96PY6)	95.5%
ACVR1B (Homo sapiens, UniProt P36896)	102%
MAP3K14 (Homo sapiens, UniProt Q99558)	88.3%
MAPKAPK2 (Homo sapiens, UniProt P49137)	93.5%
JAK3 (Homo sapiens, UniProt P52333)	106%
MAP3K5 (Homo sapiens, UniProt Q99683)	91.7%
GRK7 (Homo sapiens, UniProt Q8WTQ7)	112%
ULK2 (Homo sapiens, UniProt Q8IYT8)	111%
CSNK1G3 (Homo sapiens, UniProt Q9Y6M4)	75.9%

Set 2
SMILES: CN(c1ccnc(CNc2nc(Nc3ccc4c(c3)CC(=O)N4)ncc2C(F)(F)F)n1)S(C)(=O)=O
Observed: cell-free assay
Technique: competition with immobilised ligand
Tested at: 1 µM
target	remaining binding [%]
FLT3 (Homo sapiens, UniProt P36888, D835V)	1.5
VRK2 (Homo sapiens, UniProt Q86Y07)	78
WEE2 (Homo sapiens, UniProt P0C1S8)	28
DCLK2 (Homo sapiens, UniProt Q8N568)	90
PIP4K2B (Homo sapiens, UniProt P78356)	4.8
CAMK4 (Homo sapiens, UniProt Q16566)	100
DDR2 (Homo sapiens, UniProt Q16832)	94

Set 3
Host: human
Sample: microsomes or S9
Tested at: 2 µM
Time: 0.5 h
SMILES	remaining compound [%]
COc1cc(NC(=O)c2c(OC)cc(=O)n3c2CCCC3)cc(OC)c1OC	87.8
C[C@H](Nc1nc(N)nc2[nH]cnc(=O)c12)c1cc2cccc(Cl)c2c(=O)n1-c1ccccc1	31.2
Cn1c(=O)nc(O)c2c1nc(NCCN)n2CC(O)COc1ccccc1 (stereo not drawn)	82.3
Cc1ncc(CN(C)c2nnc(C)c(C)c2C#N)s1	71.5
Cc1cc(N)cc(Br)c1OCc1ccccc1	25.2
COc1cc(OC)c(-c2[nH]nc3c2C(=O)CCC3)cc1OC	52.1
Cc1nc(C(C)N(C)CCCS(=O)(=O)N(C)C)c(C)s1 (stereo not drawn)	22.4
CC(C)(C)NC(=O)Cn1c(=O)n(-c2ccccc2F)c(=O)c2sccc21	88.4
CCOC(=O)C1=C(n2cc(-c3ccccc3)nn2)Cc2ccccc2O1	82.9
COc1cc(=O)[nH]cc1C(=O)NCCc1cn(C)c2cc(C)ccc12	34.8

Set 4
SMILES: CC(C)S(=O)(=O)c1cc2c(Nc3ccc4sc(C5CCCC5)nc4c3)ccnc2cc1OCCO
target or system	assay	system	setting	CC50
	CCK-8	L929 RIPK3 knockout, mouse	MEM with 10% FBS, with: zVAD	41.2 µM and 46.6 µM
L929 RIPK3 knockout	cell viability		without zVAD, 10% FBS	44.9 µM
L929	cell viability, CCK-8		without zVAD, 10% FBS, mean of 3	36.4 µM
L929 RIPK3 knockout	cell viability		10% FBS, mean of 3, with: zVAD	44.1 µM
L929	cell viability, CCK-8		10% FBS, mean of 3, with: zVAD	38.7 µM
	CCK-8	L929 RIPK3 knockout, mouse	MEM with 10% FBS	48.8 µM and 43.3 µM

Set 5
Cell line: mouse MPNST tumor cells
Technique: high-content nuclear imaging
Measured: cell number
Tested at: 10 µM
Time: 12 h
Setting: mean of 2 replicates
Relative to: plate mean
Reading: higher = more cells
SMILES	nuclei count
Cc1ncc([N+](=O)[O-])n1CC(O)CCl (stereo not drawn)	-0.154 z-score
CC[N+](C)(CC)CCOC(=O)C(O)(c1ccccc1)C1CCCCC1 (stereo not drawn)	2.05 z-score
O=C(Nc1cc(Cl)ccc1O)Nc1cc(C(F)(F)F)ccc1Cl	3.95 z-score
CN1CCC(OC(c2ccccc2)c2ccccc2)CC1	2.95 z-score
CS(=O)(=O)CCNCc1nc(-c2ccc3ncnc(Nc4ccc(OCc5cccc(F)c5)c(Cl)c4)c3c2)cs1	2.74 z-score
Cc1cc(Cn2c(=O)n(Cc3cnc(C)s3)c(=O)c3cc(S(=O)(=O)NC4(C)CC4)ccc32)n(C)n1	1.54 z-score
